Published values of several laboratories.
Every numbered part comes from another study and shows a few of its results, in no order.

Series 1
Target: Ras GTPase-activating protein-binding protein 1, full length (G3BP1, Homo sapiens, UniProt Q13283)
Sequence of UniProt Q13283 (whole entry, looked up): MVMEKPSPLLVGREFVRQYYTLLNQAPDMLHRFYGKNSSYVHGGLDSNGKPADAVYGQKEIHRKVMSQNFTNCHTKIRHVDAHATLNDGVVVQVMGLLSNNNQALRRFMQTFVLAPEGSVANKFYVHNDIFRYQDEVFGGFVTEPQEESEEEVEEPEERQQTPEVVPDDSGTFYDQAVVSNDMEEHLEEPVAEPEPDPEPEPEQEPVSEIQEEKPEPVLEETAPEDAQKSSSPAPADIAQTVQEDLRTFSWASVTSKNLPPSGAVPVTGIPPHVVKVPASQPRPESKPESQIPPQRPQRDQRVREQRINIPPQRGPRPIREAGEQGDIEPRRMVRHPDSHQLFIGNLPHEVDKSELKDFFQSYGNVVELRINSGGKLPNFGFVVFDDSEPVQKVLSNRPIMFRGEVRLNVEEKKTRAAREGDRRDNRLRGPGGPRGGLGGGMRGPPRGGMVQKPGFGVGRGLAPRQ
Technique: RNA Bind-n-Seq
Form: RNA
Medium: in vitro
Tested at: 200 nM
Notes: whole 134-nt RNA, ends assumed
Together with: 150 mM LiCl
Relative to: input library
Reading: higher = stronger binding
Library: 7-deaza-guanosine replaces G
Shared flanks, not repeated: GGGAGUUCUACAGUCCGACGAUC … UGGAAUUCUCGGGUGUCAAGG
| Sequence | log2 enrichment |
| --- | --- |
| CCUGUGCUACACAUCGUAUGUACCGAAUCGGGUUUUUUGGGUUUUUUGGGUUUUUUGGGGAAAGUAUUAUGUUACGCCGUUCGGAUCUGC | -0.553 |
| UCCUGUGCUACACAUCGUAUGUACCGAAUCGGGUUUUUUGGGUUUUUUGGUUUUUUGGGAAAGUAUUAUGUUACGCCGUUCGGAUCUGCA | 0.368 |
| AGUCCUGUGCUACACAUCGUAUGUACCGAAUCGGGGUGGGGAGGGGAAAAAAAGGGGAAAGUAUUAUGUUACGCCGUUCGGAUCUGCACU | 0.693 |
| UCAAGUCCUGUGCUACACAUCGUAUGUACCGAAUCGGAAGGGGAAGGGGAAGGGGAAAGUAUUAUGUUACGCCGUUCGGAUCUGCACUUC | 0.132 |
| CCUCAAGUCCUGUGCUACACAUCGUAUGUACCGAAUCGGAAGGGGAAGGAAGGAAAGUAUUAUGUUACGCCGUUCGGAUCUGCACUUCCA | -1.16 |
| CUCAAGUCCUGUGCUACACAUCGUAUGUACCGAAUCGGAGGUUUGGUUUUUGGAAAGUAUUAUGUUACGCCGUUCGGAUCUGCACUUCCA | 0.0657 |
| CAAGUCCUGUGCUACACAUCGUAUGUACCGAAUCGGAAAAAGGUUUGGUUUUUGGAAAGUAUUAUGUUACGCCGUUCGGAUCUGCACUUC | -1.51 |
| UCAAGUCCUGUGCUACACAUCGUAUGUACCGAAUCGGGUUUGGUUUGGGUUUGGAAAGUAUUAUGUUACGCCGUUCGGAUCUGCACUUCC | -0.427 |
| GUCCUGUGCUACACAUCGUAUGUACCGAAUCGGGUUUUUGGUUUUUGGGGUUUUUGGGGAAAGUAUUAUGUUACGCCGUUCGGAUCUGCA | -0.352 |
| UCAAGUCCUGUGCUACACAUCGUAUGUACCGAAUCGGUUGGGGUUGGGGUUGGGAAAGUAUUAUGUUACGCCGUUCGGAUCUGCACUUCC | -0.794 |
| UCAAGUCCUGUGCUACACAUCGUAUGUACCGAAUCGGCCCGGCCCGGGGCCCGGGAAAGUAUUAUGUUACGCCGUUCGGAUCUGCACUUC | -0.666 |

Series 2
Target: POU domain, class 5, transcription factor 1, POU domain (Pou5f1, Mus musculus, UniProt P20263, residues 131-289)
Sequence of UniProt P20263 (131-289, looked up): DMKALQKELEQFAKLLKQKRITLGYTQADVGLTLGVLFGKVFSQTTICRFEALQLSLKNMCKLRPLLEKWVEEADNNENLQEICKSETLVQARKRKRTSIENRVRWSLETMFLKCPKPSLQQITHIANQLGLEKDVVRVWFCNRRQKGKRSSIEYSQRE
Technique: Spec-seq
Form: double-stranded DNA, one strand shown
Medium: in vitro
Tested at: not given
Notes: whole probe, mean of replicates
Relative to: not given
Reading: lower = stronger binding
Shared flanks, not repeated: GAGTCGTCTCGTCAGCAC … CCGTAGAGCACTCAGGTC
| Sequence | relative binding energy |
| --- | --- |
| ATTTGTAT | -0.319 ln ratio |
| ATAGAAAT | 0.366 ln ratio |
| ATGCATCT | -0.551 ln ratio |
| ATGCGGCA | 0.403 ln ratio |
| ATGCGAAA | 0.0514 ln ratio |
| GCGGTAAT | 0.581 ln ratio |
| ATGCAATT | -0.679 ln ratio |
| ATCCCAAT | 0.415 ln ratio |
| ATGCAAGC | -0.154 ln ratio |
| CTGGTAAT | 0.767 ln ratio |
| CTGTTAAT | 0.331 ln ratio |
| TTTTTAAT | 0.00995 ln ratio |
| ATGCTTGA | 0.431 ln ratio |
| GCCTTAAT | 0.744 ln ratio |
| ATAACCAT | -0.214 ln ratio |
| ATTGTTAT | 0.367 ln ratio |
| CAATTAAT | -0.155 ln ratio |
| ATCCCTAT | 0.543 ln ratio |
| ATGCGTAG | 0.189 ln ratio |
| ATGCAGAT | -1.21 ln ratio |
| TGCCTAAT | 0.792 ln ratio |
| ATGCTAAC | 0.0512 ln ratio |
| CTCATAAT | 0.353 ln ratio |
| ATGGACAT | 0.438 ln ratio |
| GCGATAAT | 0.56 ln ratio |

Series 3
Target: Histone acetyltransferase KAT6A, winged helix 2, GST fusion (KAT6A, Homo sapiens, UniProt Q92794, residues 85-181)
Technique: protein binding microarray
Form: double-stranded DNA, one strand shown
Medium: in vitro
Tested at: not given
Notes: 8-mer, flanks averaged, mean of 2 arrays, mostly near background
Relative to: not given
Reading: higher = stronger binding
Residues (chain): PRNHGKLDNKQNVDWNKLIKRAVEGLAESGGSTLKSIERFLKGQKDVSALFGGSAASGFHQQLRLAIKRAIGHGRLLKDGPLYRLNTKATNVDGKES
| Sequence | E-score |
| --- | --- |
| GTCTGCCA | -0.0742 |
| CGCACTAC | 0.153 |
| CACGATAC | -0.133 |
| CTAGGGAC | -0.0584 |
| AGAAGAGC | 0.114 |
| CCAGTCTC | -0.0529 |
| CTACTCAG | 0.0671 |
| ATTTCTGC | 0.244 |
| CTCGACAA | 0.0199 |
| TACGGTAA | -0.131 |
| CCGTTAAG | 0.008 |
| GCGTACTA | -0.00347 |
| AATACCCC | -0.103 |
| TACTAGCA | 0.00967 |
| AATTCAGT | -0.221 |
| CGGTGAAC | 0.0495 |
| AGCAATAC | -0.0591 |
| ACAATTAC | -0.0994 |
| CGGTGACA | 0.054 |

Series 4
Target: Centromere-binding protein 1, full length, N-terminal tag (CBF1, Saccharomyces cerevisiae, UniProt P17106, residues 1-351)
Sequence of UniProt P17106 (whole entry, looked up): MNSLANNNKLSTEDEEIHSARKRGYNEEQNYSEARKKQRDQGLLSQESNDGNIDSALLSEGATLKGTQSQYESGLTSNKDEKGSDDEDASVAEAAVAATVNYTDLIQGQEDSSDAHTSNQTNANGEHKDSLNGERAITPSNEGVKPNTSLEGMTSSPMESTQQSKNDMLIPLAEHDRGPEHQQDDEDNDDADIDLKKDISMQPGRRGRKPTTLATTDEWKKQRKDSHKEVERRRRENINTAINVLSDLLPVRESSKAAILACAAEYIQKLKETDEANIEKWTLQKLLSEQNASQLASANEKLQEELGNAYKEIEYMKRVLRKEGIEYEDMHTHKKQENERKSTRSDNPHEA
Technique: protein-binding microarray
Form: double-stranded DNA, one strand shown
Medium: in vitro
Tested at: 0.8 µM
Notes: whole 60-bp probe, no competitor
Reading: higher = stronger binding
Shared flanks, not repeated: … GTCTTGATTCGCTTGACGCTGCTG
| Sequence | fluorescence intensity |
| --- | --- |
| CTACTCTATTTTGATCACGCATGCAATTGCACATTC | 1660 a.u. |
| GAAAACATGGATCTCAGCGTGGTAACATCGCTCTAG | 479 a.u. |
| CTAACTAAATATTTCAACGTGTGTCTTTCAATTTTC | 548 a.u. |
| CCTAACTACTATAGTGATGTTGGATAGCTTCGTACA | 533 a.u. |
| CTAATTTCAACCATCCTCGTGTCCTTGTTGTTATTC | 610 a.u. |
| TGTACGAAGCTATCCATCGTGGATATAGTAGTTAGG | 508 a.u. |
| CTATGTTCATGAGTACACATGATTCCAAGAAAGTTC | 1030 a.u. |
| CTAAGCCAGATCAGGTGCGTGGATTCATATAATTTC | 1410 a.u. |
| CTAGGGCAGATACTTCGTGTGACAATGGCCAATTTC | 508 a.u. |
| CTACCGCTAATTAGTAACGTGCCGTGATTCTTTTTC | 1420 a.u. |
| CTAATTTTACAATTTCATGTGCACACACCAAGGTTC | 562 a.u. |
| CTATTCCAACACCATCACGTTATCAATTCTTTCTTC | 1470 a.u. |
| GAATACACAATGTTTCTCGTGGTACAGTTTCGATAG | 563 a.u. |
| TGTACGAAGCTATCTGATGTAATTATAGTAGTTAGG | 542 a.u. |
| CTAAACGAAACAAATCATGTGTTACCCGTCCTGTTC | 1020 a.u. |
| CTAAAGAAATTGATTCTGATGCTTTATTTTTTATTC | 498 a.u. |
| GAACCAGACACGTCGCACGTGCTCTTGCAGAGATAG | 10100 a.u. |
| GAAACATAAGCAAAGCACATGGGAATAGACAATTAG | 577 a.u. |
| GAAAATATCGCGAACCGCGTGAAGTGGCTTAGTTAG | 486 a.u. |
| GAATTGGCTTATTAAGACATCAGAGTTCATTAATAG | 532 a.u. |
| TGTACGAAGCTATGTGTGGTGGTTATAGTAGTTAGG | 545 a.u. |
| CTAATATACAAATATCACCTGTAATATATAAGATTC | 609 a.u. |
| TGTACGAAGCTATCATACGTGCATATAGTAGTTAGG | 533 a.u. |
| CTAAGAACCTAGAGTCACGATTGAAATATTTAATTC | 593 a.u. |
| CCTAACTACTATATCCACGTGCTATAGCTTCGTACA | 4500 a.u. |

For quick reference, copied from above (series 3):
| Sequence | E-score |
| --- | --- |
| CTAGGGAC | -0.0584 |
| AGAAGAGC | 0.114 |
| CCAGTCTC | -0.0529 |
| CTACTCAG | 0.0671 |
